{"data": "Experimental data gathered from unrelated publications", "organism": "Enterococcus faecium", "note": "Each line is one published result; not all experiments were run side by side."}
{"Compound": "CN(Cc1cc(N(C)C)c2c(c1O)C(=O)C1=C(O)[C@]3(O)C(=O)C(C(N)=O)=C(O)[C@@H](N(C)C)[C@@H]3C[C@@H]1C2)CC(C)(C)C", "system": "494, Tet M and Tet L", "MIC": "0.25 µg/mL"}
{"Compound": "CN1/C(=C/C=C/c2cc(-c3ccccc3)cc(-c3ccccc3)[o+]2)C(C)(C)c2ccccc21", "test": "microbial growth, broth dilution", "system": "VRE", "MIC": "0.16 µg/mL"}
{"Compound": "CC1=CC2(C)C(=C(C)C3C4CC(C)CC(C)C4C4Oc5ccc(cc5)CC5(O)NC(=O)C(=C(O)C2C43)C5Nc2ncnc3c2ncn3C2OC(CO)C(O)C2O)C1C (centres unmarked)", "test": "microbial growth, broth dilution", "system": "ATCC35667", "MIC": "12.5 µM"}
{"Compound": "CC[P+](CC)(CC)[Au-][S+](C[C@H]1O[C@H](O[C@H]2O[C@H](COC(C)=O)[C@@H](OC(C)=O)[C@H](OC(C)=O)[C@H]2OC(C)=O)[C@H](OC(C)=O)[C@@H](OC(C)=O)[C@@H]1OC(C)=O)[Au-][P+](CC)(CC)CC.[Cl-]", "system": "ATCC 700221", "MIC": "0.05 µM"}
{"Compound": "CNCc1cc(N(C)C)c2c(c1O)C(=O)C1=C(O)[C@]3(O)C(=O)C(C(N)=O)=C(O)[C@@H](N(C)C)[C@@H]3C[C@@H]1C2", "system": "494, Tet M and Tet L", "MIC": "8 µg/mL"}
{"Compound": "CNC(CC(C)C)C(=O)NC1C(=O)NC(CC(N)=O)C(=O)NC2C(=O)NC3C(=O)NC(C(=O)NC(C(=O)NCCCNC(=N)N)c4cc(O)cc(O)c4-c4cc3ccc4O)C(O)c3ccc(c(Cl)c3)Oc3cc2cc(c3OC2OC(CO)C(O)C(O)C2OC2CC(C)(N)C(O)C(C)O2)Oc2ccc(cc2Cl)C1O (centres unmarked)", "system": "ATCC BAA-2317 VanA", "conditions": "−POPE", "MIC": "4 µg/mL"}
{"Compound": "C=C(NC(=O)C(=C)NC(=O)c1csc(C2=NC3c4csc(n4)C4NC(=O)c5csc(n5)C(C(C)(O)C(C)O)NC(=O)C5CSC(=N5)C(=CC)NC(=O)C(C(C)O)NC(=O)c5csc(n5)C3(CC2)NC(=O)C(C)NC(=O)C(=C)NC(=O)C(Cc2ccccc2)NC(=O)C(C(C)CC)NC2C=Cc3c(C(C)O)cc(nc3C2O)C(=O)OC4C)n1)C(N)=O (centres unmarked)", "test": "broth microdilution", "system": "ATCC 12952 VRE", "conditions": "18 h, 37 °C", "MIC": "0.011 µg/mL"}
{"Compound": "CNC(CC(C)C)C(=O)NC1C(=O)NC(CC(N)=O)C(=O)NC2C(=O)NC3C(=O)NC(C(=O)NC(C(=O)NCCCNC(=N)N)c4cc(O)cc(O)c4-c4cc3ccc4O)C(O)c3ccc(c(Cl)c3)Oc3cc2cc(c3OC2OC(CO)C(O)C(O)C2OC2CC(C)(NCc3ccc(-c4ccc(Cl)cc4)cc3)C(O)C(C)O2)Oc2ccc(cc2Cl)C1O (centres unmarked)", "system": "ATCC BAA-2317 VanA", "conditions": "with: +LTA 100 µg/mL", "MIC": "2.5 µg/mL"}
{"Compound": "CC(C)C[C@H](NC(=O)[C@H](CC(N)=O)NC(=O)[C@H](CCCNC(=N)N)NC(=O)[C@@H](CC(C)C)NC(=O)[C@H](Cc1ccccc1)NC(=O)[C@H](CC(=O)O)NC(=O)[C@H](CCCCN)NC(=O)[C@@H](CC(C)C)NC(=O)[C@H](CCCNC(=N)N)NC(=O)[C@H](CCC(N)=O)NC(=O)[C@@H](NC(=O)[C@@H](CC(C)C)NC(=O)[C@H](CCCNC(=N)N)NC(=O)[C@H](CCCCN)NC(=O)[C@H](Cc1ccc(-c2ccccc2)cc1)NC(=O)CN)C(C)C)C(=O)N[C@H](C(N)=O)C(C)C", "test": "broth microdilution", "system": "ATCC 51559", "MIC": "12.5 µM"}
{"Compound": "Cc1cc(/C=C2\\Sc3ccccc3N2CCCN2CCCC2)c2ccccc2[n+]1C", "test": "microbial growth, broth dilution", "system": "ATCC49624", "MIC": "32 µg/mL"}
{"Compound": "CCC1(C)CCN(Cc2cc(N(C)C)c3c(c2O)C(=O)C2=C(O)[C@]4(O)C(=O)C(C(N)=O)=C(O)[C@@H](N(C)C)[C@@H]4C[C@@H]2C3)CC1", "system": "494, Tet M and Tet L", "MIC": "1 µg/mL"}
{"note": "Repeated from above:"}
{"Compound": "CN(Cc1cc(N(C)C)c2c(c1O)C(=O)C1=C(O)[C@]3(O)C(=O)C(C(N)=O)=C(O)[C@@H](N(C)C)[C@@H]3C[C@@H]1C2)CC(C)(C)C", "system": "494, Tet M and Tet L", "MIC": "0.25 µg/mL"}
